Experimental data pooled from the literature.
A part holds a random share of what one study measured. Changes are numbered by the printed parent chain.

Sample 1
Target: ABI1, truncated, D143A, DHFR fusion (Arabidopsis thaliana)
Method: DHFR PCA, deep sequencing
Matrix: yeast
Notes: methotrexate growth selection, single substitutions
Added: (+)-ABA 0.11 µM
Relative to: wild-type fitted maximum
Reading: higher = stronger binding
Parent: PYL1, truncated, DHFR fusion (Arabidopsis thaliana); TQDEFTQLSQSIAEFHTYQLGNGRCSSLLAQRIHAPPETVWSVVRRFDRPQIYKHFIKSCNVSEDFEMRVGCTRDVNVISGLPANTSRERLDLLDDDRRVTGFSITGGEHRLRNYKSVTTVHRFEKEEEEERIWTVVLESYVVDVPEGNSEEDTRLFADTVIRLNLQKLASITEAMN
Change	relative binding score
F124A	12.8%
N85I	68.1%
W134A	6.14%
T6E	52.7%
E130R	35.7%
T6P	56.5%
L164D	-3.05%
D96N	5.77%
D3H	30.3%
Q51M	3.33%
V43F	5.02%
T119I	4.7%
S26C	22.8%
R46E	-1.82%
H34W	4.8%
I133T	41.7%
Q7V	30.4%
V137Q	-1.94%

Sample 2
Target: Interferon regulatory factor 7, full length, phosphomimetic (IRF7, Homo sapiens, UniProt Q92985, residues 1-503, S101K/S471D/S472D/S475D/S476D/S477D/S483D/S484D/S487D)
UniProt Q92985, sequence (whole entry, unmodified, looked up): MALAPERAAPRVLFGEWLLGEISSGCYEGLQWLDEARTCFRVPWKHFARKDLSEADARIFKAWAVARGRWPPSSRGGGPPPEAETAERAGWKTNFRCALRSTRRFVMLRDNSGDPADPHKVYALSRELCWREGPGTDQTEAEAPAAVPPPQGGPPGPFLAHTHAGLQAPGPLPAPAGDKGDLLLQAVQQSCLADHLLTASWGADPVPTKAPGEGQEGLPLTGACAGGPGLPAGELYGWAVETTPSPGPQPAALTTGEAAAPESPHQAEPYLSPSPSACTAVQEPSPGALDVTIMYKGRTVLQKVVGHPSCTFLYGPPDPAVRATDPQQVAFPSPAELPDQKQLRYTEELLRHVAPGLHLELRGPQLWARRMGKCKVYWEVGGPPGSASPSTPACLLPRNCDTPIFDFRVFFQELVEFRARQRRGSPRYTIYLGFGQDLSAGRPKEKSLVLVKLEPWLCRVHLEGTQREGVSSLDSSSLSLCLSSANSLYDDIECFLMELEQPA
Method: protein-binding microarray
Form: double-stranded DNA, one strand shown
Matrix: in vitro
Concentration: 250 nM
Notes: 60-bp whole probe
Added: salmon DNA 0.4 mg/ml
Relative to: random background probes
Reading: higher = stronger binding
Constant ends, left off below: GCCTAGCAC … GTCTTGATTCGCTTGACGCTGCTG
Oligonucleotide	log fluorescence [z-score]
TTAGTACTGGACACTGGGTTAGTGCTA	-0.141
GACGATTTCGAGTTTCGAGACGTGCTA	4.88
GTCGGTTTCCTTATCCTGACGTGCTAG	4.38
GACGGACTGGGGAATGGGGACGTGCTA	-0.418
TCATGTTTATGTCTGGGACTGTGCTAG	0.254
GACGAGTTCAGTTTCGAGACGTGCTAG	4.39
TCACCACTCTTTCCTCACACTGTGCTA	0.654
TACGGACTGCTACTGCTGACGTGCTAG	-0.681
TTAGGAGTGGACTATCGGTTAGTGCTA	-0.755
AGCTACTGAGTGGCAACACAGTGCTAG	-1.02
TCATAATTCTTTGCTCATACTGTGCTA	0.398
TTAGATCTCAGTATTGATTAGTGCTAG	0.354
TTAGATTTCGGTATCGATTAGTGCTAG	2.91
CACGGACTGGACACTGGGGACGTGCTA	-0.813
TCATTTTTCACTATTGCACTGTGCTAG	1.37
TTAGGACTGCGACTGCTTTAGTGCTAG	-0.154
TTAGATATCGGGTCTCGATTAGTGCTA	0.864
TTACGTTTCGGTTTCGGTTAGTGCTAG	12.8
TTAGGACTGCTTTTACTTTAGTGCTAG	0.918

Sample 3
Target: Centromere-binding protein 1, full length, His-tagged (CBF1, Saccharomyces cerevisiae, UniProt P17106, residues 1-351)
UniProt P17106, sequence (whole entry, looked up): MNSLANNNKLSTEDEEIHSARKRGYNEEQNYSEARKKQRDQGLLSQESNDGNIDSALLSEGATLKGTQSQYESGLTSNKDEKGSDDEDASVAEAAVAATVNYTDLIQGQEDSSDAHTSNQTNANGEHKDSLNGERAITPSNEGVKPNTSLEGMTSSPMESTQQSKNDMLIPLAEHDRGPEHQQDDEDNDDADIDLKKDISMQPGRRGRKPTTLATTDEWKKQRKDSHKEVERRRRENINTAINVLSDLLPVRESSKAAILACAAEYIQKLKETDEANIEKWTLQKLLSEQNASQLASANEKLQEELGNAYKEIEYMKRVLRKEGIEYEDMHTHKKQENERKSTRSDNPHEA
Method: competition protein-binding microarray
Form: double-stranded DNA, one strand shown
Matrix: in vitro
Concentration: 2 µM
Notes: whole 60-bp probe, lowest competitor level
Added: Pho4 competitor, 0.05 µM
Reading: higher = stronger binding
Constant ends, left off below: … GTCTTGATTCGCTTGACGCTGCTG
Oligonucleotide	fluorescence intensity
TTCTTTAATAAGTTGGTCGTGGGTACCTGCTGTTGC	74.9 a.u.
AATGCGGCCCAAAAGCACGTGTGGAAAAAAAGTATG	1670 a.u.
TGCGCAACAACTTTTCACGTGATATTATGTCTAGAA	3290 a.u.
GTCTTGTCTCATTGTAACGTGGGTGTCCCCACTTCA	81 a.u.
TCGCGTTTCTCCAGCCACGTGCTTTTAACCTAAATA	2000 a.u.
CGTCCTAGTGATTGTCTCGTGGGTGCCATGAGGAAG	137 a.u.
CTTCTGTAAATTTGTGTTGTGGGTGGACGCGCCCCG	93.2 a.u.
TGCGCAACAACTTGCAGGGTGGGTGTATGTCTAGAA	62.2 a.u.
TGCGCAACAACTTGTCACCCCACTTTATGTCTAGAA	76.7 a.u.
AGTTGCTTTCATTTCGGCGTGATGGTACGGCACCCA	96.3 a.u.
TAAGTCATTAAGCGTCATGCCAGGTTTTCTTGGAAG	73.3 a.u.
GTCTTGTCTCATTGATAAGTGGGTGTCCCCACTTCA	63.6 a.u.
CGGGGTTAAGTTTGTCACCTGACTTGCTTGCAGCAG	1930 a.u.
AAAGCGGTAATTTGCATTGTGGGTGCAGATATCTAT	82.7 a.u.
CCCATTGAATTCGGGAATGTGCGGGTTTCAGATTGC	67.1 a.u.
CGTCCTAGTGATTGGTCGGTGGGTGCCATGAGGAAG	79 a.u.
AGAATGGGCGCTTGTCGCGTGCCAGATCGGGGTTCA	88.3 a.u.
CTGTGTGCCATTAGCCATGTGATGGGCCTATTAATG	446 a.u.
CCTATGTATTACCATCACGTGGGTAGGGAAGACTAC	3590 a.u.

Sample 4
Target: Histone acetyltransferase KAT6A, winged helix 2, GST fusion (KAT6A, Homo sapiens, UniProt Q92794, residues 85-181)
Method: protein binding microarray
Form: double-stranded DNA, one strand shown
Matrix: in vitro
Concentration: not given
Notes: 8-mer, flanks averaged, mean of 2 arrays, mostly near background
Relative to: not given
Reading: higher = stronger binding
Target sequence (chain): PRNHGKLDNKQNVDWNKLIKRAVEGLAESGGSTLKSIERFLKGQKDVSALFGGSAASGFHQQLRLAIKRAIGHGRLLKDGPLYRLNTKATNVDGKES
Oligonucleotide	E-score
ATGTAGTA	0.0369
CCTAGCGA	-0.0223
GTACAGAC	-0.0327
ATTTCCTC	0.163
GGTAATGA	-0.078
TAGTTCCA	0.093
GGCATTGA	0.0642
TCAAGCGA	-0.0526
AAACCGCA	-0.0139
CACTGTCG	-0.114
CGGGGAGA	0.0299
AGAACCGA	-0.00424
AAGTAAAA	0.0581
CTGCTCAC	0.06
CCTGAAGG	-0.012
CTGCGGTC	0.133
AATAAAAT	0.0947
CAAGGTTA	-0.0737
CCACTGGG	0.01
GCTATAGC	-0.215
AAGGGGAA	-0.0715
AGTGTTAT	-0.104
ATTCGATC	0.0765
CGGTTTTA	0.016
CGCATGCG	0.11

Sample 5
Target: Sal-like protein 4, full length isoform B (SALL4, Homo sapiens, UniProt Q9UJQ4-2, residues 1-616)
Method: universal PBM
Form: double-stranded DNA, one strand shown
Matrix: in vitro
Concentration: not given
Notes: 8-mer, flanks averaged, mean of replicates
Reading: higher = stronger binding
Oligonucleotide	E-score
CATTCCTA	0.063
GGTTCGAA	-0.0442
AGCAACAG	0.0214
CGCTTAAG	-0.0926
CTTTCGAC	0.0468
CACGAGAA	-0.149
GGATGACC	-0.31
GATTTGGA	0.132
GAACAAAC	0.119
CTTCGGCA	-0.233
GGTCGTTA	-0.0447
TAGGGGCA	-0.062
ACCCCACG	-0.215
ACAGCGCC	-0.304
ACACCAGT	-0.196
TGGGAACA	-0.18
CTAATGGA	-0.00348
CTACGAGC	-0.211
AGGGTTTC	-0.0206
ACGGTGGG	-0.171
CCGGGCAC	-0.33
AGGGACTG	-0.174
ATATGCTA	0.229
AACGTAAT	0.296

Sample 6
Target: RNA binding protein fox-1 homolog 2, RRM domain, GST-SBP tag (RBFOX2, Homo sapiens, UniProt O43251-10, residues 100-194)
Method: RNA Bind-n-Seq
Form: RNA
Matrix: in vitro
Concentration: 365 nM
Notes: natural RNA segment, single round, ends assumed
Relative to: no-protein control
Reading: higher = stronger binding
Constant ends, left off below: GGGAGUUCUACAGUCCGACGAUC … UGGAAUUCUCGGGUGCCAA
Construct (chain): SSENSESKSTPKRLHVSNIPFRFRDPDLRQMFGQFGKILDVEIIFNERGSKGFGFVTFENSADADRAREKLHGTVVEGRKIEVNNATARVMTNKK
Oligonucleotide	RBNS enrichment (R)
CCUUGGAGAUAUCGAAGUAUGGGAUCAAGCUGAGAAAGAACUUGAAAACAGUCUGAAUGAAUUUGGUGAAAAGUGGGAGUUAAACUCUGGAGAUGGAGCUUUCUAUGGCC	1.68
UCUUUGGGAACUGUCCUCUUGGUGGAUCCGGGUUCCUGACCCCACCUCCCCCCAGUUGCCCCUCAGUCGAAGCACUGUGCCAUGUCCUGCUGGGAAUUUUCUGCCAUGCA	0.378
CCUGAGUUGCUUUCUGGAUCUGGGGCUUCAGGACUUGCUGCUUCAGUCAGCCUUUAUUAGCACCAAAGACUUUAUGAAGAUCCCACACACAGACACACAUCCCUUCCCGC	0.55
AUACCGGUUUAACUACUAGUGUGUUACUGCCUCAUUUAUCUACAUUAACUAGAACAGAAUGCUUACAAAGUUUACGUUAAUGUUAUAUAUUAUGUAUAAAUAAAUAUAUU	5.35
UGUGUUCAGUGUUUGACUCCAAAACAGCUGCCUGCUCCCUCAGUGUGCUCGGUGGGGAGAGGGCCGUCACGUCAAGGUCAUUGUUACUGCUUCCCUGGCUGAGUCACAGG	1.07
CCAUCUUCCAUGACUGCUUCUAUUCCUGCCUUCCAUGGCAGUGUCCACAGGAGAUAGGCAAGAAGAUUGGAGCAGCUUUCUCACAGGUCUGCAAUUUGGAUUUUCUCCAA	0.311
UUUCUGCUGUACUAUCUGGAUACUAAAAUGUUACGGAAGUAGCUCUUUGUUCUCCCUCACUCUGCCCUUAGUUAAUAGAAAUUCAGACUCGCCAAGUAAGGCUUCGUGCA	1.82
CACAUUUUUAACUCCUCUCGCUCUGAUGGGACAUUUGUUACCCUUUUUUCAUAGUGAAAUUGUGUUUCAGGCUUAGUCUGACCUUUCUGGUUUCUUCAUUUUCUUCCAUU	0.653
UUAGAGGGAUGAGAGUUCCCAUUAAGCACUCCAUGCAAUGGCCUCUCACUGUUUAAAGAACACACUUUUGAGAUUAUGUGGUCCUAUCCUUGUUUUAAUGAUUAAAAAAA	0.588
AUCCUUAAUGUAGUUCUCAUCCUCCGCAUGCCCUCAGCCACAAGCGGGUGACUGACUGUUCCCUGAUGAUUUGGCCCACCUCCUGUGUUUGGACCUCUAGGGAGGAGGGU	12.5
CCCAACAGUAGUGCUUUAUGGUCAGUAUUCUAUGUGGAGACCUUGCACCUUGUAAUCAUCAAUACAUCCACCAAAAAUAUAUAAUGUACCAUAUAUAUUAAUAGUCAACA	0.816
AGAACUGCUUUGAAAAUUUGGAAUAUCUGAUAACUCCAGUGGGCCAAGACAUGGUGGAUAAAAAUGUGGCAAAGACGACAAGAAACUUCAGGUGGUAGCCCUGGUUGUGC	1.06

A few entries again (sample 6):
Oligonucleotide	RBNS enrichment (R)
AGAACUGCUUUGAAAAUUUGGAAUAUCUGAUAACUCCAGUGGGCCAAGACAUGGUGGAUAAAAAUGUGGCAAAGACGACAAGAAACUUCAGGUGGUAGCCCUGGUUGUGC	1.06
CCUGAGUUGCUUUCUGGAUCUGGGGCUUCAGGACUUGCUGCUUCAGUCAGCCUUUAUUAGCACCAAAGACUUUAUGAAGAUCCCACACACAGACACACAUCCCUUCCCGC	0.55
UGUGUUCAGUGUUUGACUCCAAAACAGCUGCCUGCUCCCUCAGUGUGCUCGGUGGGGAGAGGGCCGUCACGUCAAGGUCAUUGUUACUGCUUCCCUGGCUGAGUCACAGG	1.07
CCUUGGAGAUAUCGAAGUAUGGGAUCAAGCUGAGAAAGAACUUGAAAACAGUCUGAAUGAAUUUGGUGAAAAGUGGGAGUUAAACUCUGGAGAUGGAGCUUUCUAUGGCC	1.68
UUAGAGGGAUGAGAGUUCCCAUUAAGCACUCCAUGCAAUGGCCUCUCACUGUUUAAAGAACACACUUUUGAGAUUAUGUGGUCCUAUCCUUGUUUUAAUGAUUAAAAAAA	0.588
CCAUCUUCCAUGACUGCUUCUAUUCCUGCCUUCCAUGGCAGUGUCCACAGGAGAUAGGCAAGAAGAUUGGAGCAGCUUUCUCACAGGUCUGCAAUUUGGAUUUUCUCCAA	0.311
UCUUUGGGAACUGUCCUCUUGGUGGAUCCGGGUUCCUGACCCCACCUCCCCCCAGUUGCCCCUCAGUCGAAGCACUGUGCCAUGUCCUGCUGGGAAUUUUCUGCCAUGCA	0.378
UUUCUGCUGUACUAUCUGGAUACUAAAAUGUUACGGAAGUAGCUCUUUGUUCUCCCUCACUCUGCCCUUAGUUAAUAGAAAUUCAGACUCGCCAAGUAAGGCUUCGUGCA	1.82
AUACCGGUUUAACUACUAGUGUGUUACUGCCUCAUUUAUCUACAUUAACUAGAACAGAAUGCUUACAAAGUUUACGUUAAUGUUAUAUAUUAUGUAUAAAUAAAUAUAUU	5.35
CACAUUUUUAACUCCUCUCGCUCUGAUGGGACAUUUGUUACCCUUUUUUCAUAGUGAAAUUGUGUUUCAGGCUUAGUCUGACCUUUCUGGUUUCUUCAUUUUCUUCCAUU	0.653
AUCCUUAAUGUAGUUCUCAUCCUCCGCAUGCCCUCAGCCACAAGCGGGUGACUGACUGUUCCCUGAUGAUUUGGCCCACCUCCUGUGUUUGGACCUCUAGGGAGGAGGGU	12.5
CCCAACAGUAGUGCUUUAUGGUCAGUAUUCUAUGUGGAGACCUUGCACCUUGUAAUCAUCAAUACAUCCACCAAAAAUAUAUAAUGUACCAUAUAUAUUAAUAGUCAACA	0.816
